Experimental data of several laboratories.
Parts stem from different laboratories: compare values within a part only. Changes are numbered by the printed parent chain.

Set 1 — target: CCNE2, cyclin fold, Cln2 fusion (human); technique: yeast growth competition, sequencing; matrix: yeast; setting: weak parent motif; relative to: not given; reading: higher = stronger binding; measurement: normalised enrichment score
Starting sequence: ORC1 docking peptide (human); PRARKRLELGNLG; partner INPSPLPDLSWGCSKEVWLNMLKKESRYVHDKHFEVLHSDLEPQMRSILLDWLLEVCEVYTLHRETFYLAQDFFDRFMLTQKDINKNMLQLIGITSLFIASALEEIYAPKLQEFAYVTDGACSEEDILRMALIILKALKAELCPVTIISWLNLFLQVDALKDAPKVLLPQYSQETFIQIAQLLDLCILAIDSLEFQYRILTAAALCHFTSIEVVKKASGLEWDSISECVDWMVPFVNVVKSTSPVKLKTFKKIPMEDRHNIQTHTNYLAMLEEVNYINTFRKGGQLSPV
PRDRKRLELGNLG [A3D]: 0.276
ARARKRLELGNLG [P1A]: 1.47
PRARKGLELGNLG [R6G]: 1.16
PRAVKRLELGNLG [R4V]: 0.445
PRARKRLEPGNLG [L9P]: -0.468
PRARKRLILGNLG [E8I]: 0.823
PRARKRLELGNLM [G13M]: 1.81
PRARKRLELGNLE [G13E]: -0.0568
PRARLRLELGNLG [K5L]: -0.128
PRARKRSELGNLG [L7S]: 1.32
PRARKQLELGNLG [R6Q]: 0.114

Set 2 — technique: DHFR PCA, deep sequencing; matrix: yeast; together with: (+)-ABA 1.4 µM; relative to: wild-type fitted maximum; reading: higher = stronger binding; measurement: relative binding score
Target: ABI1, truncated, D143A, DHFR fusion (Arabidopsis thaliana)
Setting: methotrexate growth selection, single substitutions
Starting sequence: PYL1, truncated, DHFR fusion (Arabidopsis thaliana); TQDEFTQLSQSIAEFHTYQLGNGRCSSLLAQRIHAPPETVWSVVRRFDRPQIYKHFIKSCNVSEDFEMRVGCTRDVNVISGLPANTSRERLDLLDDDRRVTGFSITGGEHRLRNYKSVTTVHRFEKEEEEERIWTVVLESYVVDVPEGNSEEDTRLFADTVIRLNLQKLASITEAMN
A158Y: -12.7%
H122P: -4.16%
F47P: -1.9%
T39A: 55.6%
E4P: 39.8%
V76F: -6.62%
V44L: 39%
E125P: 63.1%
P83G: 34.8%

Set 3 — technique: universal PBM; molecule type: double-stranded DNA, one strand shown; matrix: in vitro; concentration: not given; reading: higher = stronger binding; measurement: E-score
Target: Sal-like protein 4, full length isoform B (SALL4, Homo sapiens, UniProt Q9UJQ4-2, residues 1-616)
Setting: 8-mer, flanks averaged, mean of replicates
ATCGTGTG: 0.0986
CAATTTTC: 0.193
CTCTTGAA: 0.183
GCTGCACA: -0.251
CCCTCCCA: -0.108
CATTGGAA: 0.179
CAACAGTA: -0.0371
TCCTACAA: 0.151
ATTACAAT: 0.337
GAAAATCC: 0.0712
CCAGCGCC: -0.295
CGACGTCG: -0.112
CCACTTGC: -0.107
CTTCACTC: -0.122
CAGGCGGA: -0.149

Further values, each from its own experiment
PhoQ, residues 284 288 289 292 302 303 TLSLKA — fold induction (PhoP, residues 12 14 15 18 19 VQGLL (Escherichia coli, UniProt P23836); Sort-seq, refers to: YFP reporter; E. coli; PhoQ-PhoP variant library, together with: 10 µM Mg2+; relative to: high Mg2+ state, higher = stronger signaling): 1.06

For quick reference, copied from above (set 3):
TCCTACAA: 0.151
ATTACAAT: 0.337
GAAAATCC: 0.0712
CCAGCGCC: -0.295
CGACGTCG: -0.112
